Results pooled from the literature.
Every numbered part comes from another study and shows a few of its results, in no order.

Sample 1
Target: Histone acetyltransferase KAT6A, winged helix 2, GST fusion (KAT6A, Homo sapiens, UniProt Q92794, residues 85-181)
Technique: protein binding microarray
Molecule type: double-stranded DNA, one strand shown
Medium: in vitro
Tested at: not given
Notes: 8-mer, flanks averaged, mean of 2 arrays, mostly near background
Relative to: not given
Reading: higher = stronger binding
Residues (chain): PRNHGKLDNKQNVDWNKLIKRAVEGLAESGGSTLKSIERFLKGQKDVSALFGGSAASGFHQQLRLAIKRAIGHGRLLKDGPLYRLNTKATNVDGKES
Sequence	E-score
CTAGCGAA	0.00796
GACTAGAA	-0.114
CAACTACC	-0.127
GAATAAGC	-0.0038
AAATAGTG	0.0914
CCCCTATC	-0.0955
CTTGTACC	-0.172
AGATTGCT	-0.00961
CAATCTGC	-0.0212
CAATCGTA	-0.0303
AGATGTAG	-0.163
AGAGCCTC	-0.0863
GACCATGC	0.08
AGCTCGAT	0.146
GATTCACC	-0.0307
CTGGGCCC	0.0607
ATCACTCG	-0.152
GAAGATTC	0.124
AATGAGAT	-0.0605
CAGGCCTC	-0.217
CGAGTGAG	0.144
CTAAATCC	0.0327
AGTTTCTA	-0.0389
GCTCCCAC	0.102
AATATTCA	-0.0961

Sample 2
Target: RNA binding protein fox-1 homolog 2, RRM domain, GST-SBP tag (RBFOX2, Homo sapiens, UniProt O43251-10, residues 100-194)
Technique: RNA Bind-n-Seq
Molecule type: RNA
Medium: in vitro
Tested at: 365 nM
Notes: natural RNA segment, single round, ends assumed
Relative to: no-protein control
Reading: higher = stronger binding
All sequences stand within: GGGAGUUCUACAGUCCGACGAUC … UGGAAUUCUCGGGUGCCAA
Construct (chain): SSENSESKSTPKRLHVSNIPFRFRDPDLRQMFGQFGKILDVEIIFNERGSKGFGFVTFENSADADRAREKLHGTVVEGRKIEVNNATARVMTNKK
Sequence	RBNS enrichment (R)
CCAGAGCUCUUUCUGGUCAGAUUCCCCAGGUGUUUGUCCCCAGCCAAGCCUGGUCCGUAUUGUGAAGCUUGGGAUGCUGGAGCCAAUGCUGUCCCAAGAAGGCUUACUUU	0.544
CCUUGAAGCCACAAGCUAGUUUUCUUAGUUUUAAAAUCCUGUUGUAUGAAUGGCAUUUGUAUAUUAAAACACUUUUUUAAAGGACAGUUGAAAAGGGCAAGAGGAAACCA	0.404
UAGAGUAAGCCUGACAUCCUCCUCCAUUCUCAAGACUCUCUCUCUUUCAUUUGGUACCCUGUACCCCAGUGCCUCUGCGUCGCCUCCUUCUUGUGUGCCUUCUGAGCUGU	0.567
AAUUCCGUAUGUUCCUUAGACAUUACCCCCACUUAACCUCCCUUCCUCUGAUAUGCCUUGUAGCUAAGAUUUAAAAGACUGUUGAACAUAGAUGAGGGGUAUGCAUUUCU	1.64
GGGGCGGGGCACCUGCAGACCAGCCCCCUCAGCUGCGGGAGCGGAGCAAGUUGUGCCCUGCCCUUCCCUCCCUGACCUGAGGCAGAACCCAGAUUAAGCAGGUCUCCACC	0.263
AAGGGUUUCCACUCUGCACAUUGUAGAGGGAACACUCUGUAGGCCCAUGGGUCCCUUACUAGAGAGGUUGAGUGAAUUUGCCUUCAGUUAACAUGGGACCUUCUGUUUAG	0.314
AGUGUCUGCAGUAGGGGACCCAGAGUCCCAGGCCCCUGGAGUUGUUUUCGGCAGGGGCCUUGUCUCUCACUGCAUUUGGUCAGGGGGGCAUGAAUAAAGGCUACAGGCUC	0.977
GGGACAAACAACCAAGCUAUGGGUGACAGAGGCUCUCUCCUGGUGCCUGCACCUGCACUCUAGUGACCCUGGGUGCCGCCAGACCCUUCUCUUCUACAAAGACCCCAGCA	1.46

Sample 3
Target: Interferon regulatory factor 7, full length, phosphomimetic (IRF7, Homo sapiens, UniProt Q92985, residues 1-503, S471D/S472D/S475D/S476D/S477D/S483D/S484D/S487D)
Technique: protein-binding microarray
Molecule type: double-stranded DNA, one strand shown
Medium: in vitro
Tested at: 2200 nM top
Notes: 60-bp whole probe
With: salmon DNA 0.4 mg/ml
Relative to: random background probes
Reading: higher = stronger binding
All sequences stand within: GCCTAGCAC … GTCTTGATTCGCTTGACGCTGCTG
Residues (chain): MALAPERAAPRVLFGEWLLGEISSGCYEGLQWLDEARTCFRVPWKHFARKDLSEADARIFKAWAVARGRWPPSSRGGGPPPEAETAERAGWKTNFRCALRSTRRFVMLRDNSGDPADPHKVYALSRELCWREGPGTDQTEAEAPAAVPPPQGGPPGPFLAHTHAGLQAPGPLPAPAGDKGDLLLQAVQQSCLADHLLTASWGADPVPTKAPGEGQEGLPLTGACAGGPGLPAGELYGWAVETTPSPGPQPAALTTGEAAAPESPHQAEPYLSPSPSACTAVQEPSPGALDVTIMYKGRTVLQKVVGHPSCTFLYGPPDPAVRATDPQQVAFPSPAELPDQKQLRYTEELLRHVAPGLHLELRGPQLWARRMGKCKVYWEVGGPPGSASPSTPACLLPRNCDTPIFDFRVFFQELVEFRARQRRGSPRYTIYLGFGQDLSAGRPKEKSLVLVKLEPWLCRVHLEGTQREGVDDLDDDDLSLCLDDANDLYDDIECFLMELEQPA
Sequence	fitted relative affinity [z-score]
TTAGAACTCGGGACTGGATTAGTGCTA	-0.493
GACGATTTCATTTCCGAGACGTGCTAG	2.04
GACGCACTGAGTCTCGAGACGTGCTAG	0.224
GACGGTTTCCTTTGCCTGACGTGCTAG	2.68
TTGAGGTTTTCTCTGGTTCTGTGCTAG	0.718
TTATGTATCGGTATCGGTTAGTGCTAG	1.45
TTAAGACTGGGACTGGGTTAGTGCTAG	-0.889
GACGGACTGGGACTGGGGTCGTGCTAG	-0.841
GACGGTCTCCAACTGCTGACGTGCTAG	0.315
GACGATTTCGGCACTGGAGACGTGCTA	0.524
TTAGGTTTCCACTTTCGGTTAGTGCTA	10.4
GCACTCTTCTTTTTTTTCTTGTGCTAG	2.05
AGGGGACTGACTCTTCAGCACGTGCTA	-0.648
TTATGTCTCCTTTTCCTTTAGTGCTAG	2.99
TGAGCATACCATATCAGAAAGTGCTAG	0.0551
GTTCTTTTCAGTCCCCTCTTGTGCTAG	2.77
TTCGATTTCGGGACTGGATTAGTGCTA	2.76
CTAGGTTTCGGGTATCGGTTAGTGCTA	6.19
CACCACATTTTTTTCATTATGTGCTAG	1.71

Sample 4
Target: Max-binding protein MNT, bHLH-zipper, MAX partner unstated (MNT, Homo sapiens, UniProt Q99583, residues 220-300)
Technique: protein-binding microarray
Molecule type: double-stranded DNA, one strand shown
Medium: in vitro
Tested at: not given
Notes: k-mer, scored over probes, only values ≥0.25
Reading: higher = stronger binding
Residues (chain): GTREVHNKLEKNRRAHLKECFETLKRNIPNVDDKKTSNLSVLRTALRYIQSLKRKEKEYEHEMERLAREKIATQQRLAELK
Sequence	E-score
GACACGCC	0.363
GAGCATGC	0.407
ACGAGGCG	0.362
CGTGGATA	0.324
ATGCCACG	0.4
CACACCAC	0.288
ATGTGGTA	0.282
AACGTGTA	0.42
CATGCGAA	0.275
CGCACGCA	0.355
CCCGTCCC	0.256
ACTACACG	0.342
ACACCTGT	0.274
CATGCTCG	0.381
TACACGCA	0.304
ACACGCTC	0.351
CATACATG	0.252
CGGCCACG	0.347
CACCTGCC	0.26
AGATGCAC	0.258
GCCCCACC	0.37
